Assay results from different studies.
Parts stem from different laboratories: compare values within a part only.

Study 1 — technique: competition protein-binding microarray; form: double-stranded DNA, one strand shown; sample: in vitro; concentration: 2 µM; together with: Pho4 competitor, 0.05 µM; direction: higher = stronger binding; endpoint: fluorescence intensity
Target: Centromere-binding protein 1, full length, His-tagged (CBF1, Saccharomyces cerevisiae, UniProt P17106, residues 1-351)
Chain of UniProt P17106 (whole entry, looked up): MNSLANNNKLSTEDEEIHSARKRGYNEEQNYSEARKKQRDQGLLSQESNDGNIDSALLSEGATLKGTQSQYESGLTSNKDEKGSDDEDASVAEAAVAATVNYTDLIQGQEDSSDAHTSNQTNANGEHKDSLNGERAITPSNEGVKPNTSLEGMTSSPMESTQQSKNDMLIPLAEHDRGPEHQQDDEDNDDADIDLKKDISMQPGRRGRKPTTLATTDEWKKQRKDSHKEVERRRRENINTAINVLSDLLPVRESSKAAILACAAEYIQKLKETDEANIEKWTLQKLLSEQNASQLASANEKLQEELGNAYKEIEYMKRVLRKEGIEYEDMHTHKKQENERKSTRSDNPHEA
Notes: whole 60-bp probe, lowest competitor level
TTATTTGGTGTTTCTTTCGTGCCGATAGGTTTCGAAGTCTTGATTCGCTTGACGCTGCTG: 61.6 a.u.
CATACCCAACCTTTTCACGTGCTATAAGATATTTGTGTCTTGATTCGCTTGACGCTGCTG: 1500 a.u.
TTGTGGCAATCCGACCACGTCTTGTCTTCTTAACTTGTCTTGATTCGCTTGACGCTGCTG: 66.2 a.u.
CGTCCTAGTGATTTTCACGTGGTCTCCATGAGGAAGGTCTTGATTCGCTTGACGCTGCTG: 1580 a.u.

Study 2 — technique: protein binding microarray; form: double-stranded DNA, one strand shown; sample: in vitro; concentration: not given; baseline: not given; direction: higher = stronger binding; endpoint: E-score
Target: Histone acetyltransferase KAT6A, winged helix 1, GST fusion (KAT6A, Homo sapiens, UniProt Q92794, residues 1-85)
Notes: 8-mer, flanks averaged, mean of 2 arrays, mostly near background
Construct (chain): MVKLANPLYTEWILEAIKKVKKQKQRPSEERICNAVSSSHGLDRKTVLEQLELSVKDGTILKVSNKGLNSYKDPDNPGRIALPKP
AGCGGACT: 0.113
AGCCGCAT: 0.21
AAGGAACA: -0.211

Study 3 — technique: protein-binding microarray; form: double-stranded DNA, one strand shown; sample: in vitro; concentration: 940 nM top; notes: 60-bp whole probe; together with: salmon DNA 0.4 mg/ml; baseline: random background probes; direction: higher = stronger binding; endpoint: fitted relative affinity; all sequences stand within: GCCTAGCAC … GTCTTGATTCGCTTGACGCTGCTG
Target: Interferon regulatory factor 5, full length, phosphomimetic (IRF5, Homo sapiens, UniProt Q13568-2, residues 1-514, S451D/S453D/S456D/S462D)
CTAGATATCGGGACTGGATTAGTGCTA: -0.224 z-score
TGAGATCTCAGACTGGATTAGTGCTAG: -0.203 z-score
CTGCTGATCGGTTGGGGTGGGTGCTAG: -0.0755 z-score
TCCTAATTCTCTTTTCACTTGTGCTAG: 2.23 z-score
TTAGATATCGGGACTAGATTAGTGCTA: 0.111 z-score
TTAGGTATCGGGACTGGGTGAGTGCTA: 3.82 z-score

Further values, each from its own experiment
PhoQ, residues 284 288 289 292 302 303 AGGCYF — fold induction (PhoP, residues 12 14 15 18 19 TPWLV (Escherichia coli, UniProt P23836); Sort-seq, measured: YFP reporter; E. coli; PhoQ-PhoP variant library, together with: 10 µM Mg2+; baseline: high Mg2+ state, higher = stronger signaling): 2.99

Repeated from above (further values, each from its own experiment):
PhoQ, residues 284 288 289 292 302 303 AGGCYF — fold induction (PhoP, residues 12 14 15 18 19 TPWLV (Escherichia coli, UniProt P23836); Sort-seq, measured: YFP reporter; E. coli; PhoQ-PhoP variant library, together with: 10 µM Mg2+; baseline: high Mg2+ state, higher = stronger signaling): 2.99
